Experimental data of several laboratories.
Every numbered part comes from another study and shows a few of its results, in no order. Substitutions count along the parent as printed.
Sequence of UniProt O75582 (whole entry, looked up): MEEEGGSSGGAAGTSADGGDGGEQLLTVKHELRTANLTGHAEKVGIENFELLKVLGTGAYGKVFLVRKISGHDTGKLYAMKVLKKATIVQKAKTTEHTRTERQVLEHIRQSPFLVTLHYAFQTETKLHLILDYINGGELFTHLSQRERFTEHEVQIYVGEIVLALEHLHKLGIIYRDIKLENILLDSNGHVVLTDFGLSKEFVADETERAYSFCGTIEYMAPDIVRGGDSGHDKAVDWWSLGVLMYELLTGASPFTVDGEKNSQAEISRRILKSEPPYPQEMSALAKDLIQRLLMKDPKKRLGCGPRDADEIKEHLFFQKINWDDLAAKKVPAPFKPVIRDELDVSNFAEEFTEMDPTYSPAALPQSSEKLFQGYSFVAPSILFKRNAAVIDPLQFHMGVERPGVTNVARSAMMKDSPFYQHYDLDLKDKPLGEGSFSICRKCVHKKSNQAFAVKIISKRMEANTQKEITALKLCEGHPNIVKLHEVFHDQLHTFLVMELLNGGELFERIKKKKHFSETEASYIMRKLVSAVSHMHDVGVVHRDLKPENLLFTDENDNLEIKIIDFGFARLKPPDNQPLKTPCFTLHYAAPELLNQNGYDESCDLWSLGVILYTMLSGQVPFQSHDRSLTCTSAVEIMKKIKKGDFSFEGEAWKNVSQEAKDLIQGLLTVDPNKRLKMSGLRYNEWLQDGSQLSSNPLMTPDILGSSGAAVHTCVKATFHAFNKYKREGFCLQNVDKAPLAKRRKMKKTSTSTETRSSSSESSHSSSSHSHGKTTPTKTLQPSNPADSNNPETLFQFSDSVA
Sequence of UniProt Q9BXA7 (whole entry, looked up): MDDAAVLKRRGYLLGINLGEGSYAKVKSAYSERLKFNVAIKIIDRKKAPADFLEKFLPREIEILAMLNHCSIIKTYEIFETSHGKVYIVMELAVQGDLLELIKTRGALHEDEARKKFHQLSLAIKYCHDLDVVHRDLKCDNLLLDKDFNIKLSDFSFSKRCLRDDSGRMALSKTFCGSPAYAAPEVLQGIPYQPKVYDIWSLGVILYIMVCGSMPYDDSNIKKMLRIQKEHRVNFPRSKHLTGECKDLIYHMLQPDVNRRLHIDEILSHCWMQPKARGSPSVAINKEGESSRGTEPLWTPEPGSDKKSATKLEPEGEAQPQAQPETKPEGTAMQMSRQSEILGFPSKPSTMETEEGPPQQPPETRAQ
Sequence of UniProt P37173 (whole entry, looked up): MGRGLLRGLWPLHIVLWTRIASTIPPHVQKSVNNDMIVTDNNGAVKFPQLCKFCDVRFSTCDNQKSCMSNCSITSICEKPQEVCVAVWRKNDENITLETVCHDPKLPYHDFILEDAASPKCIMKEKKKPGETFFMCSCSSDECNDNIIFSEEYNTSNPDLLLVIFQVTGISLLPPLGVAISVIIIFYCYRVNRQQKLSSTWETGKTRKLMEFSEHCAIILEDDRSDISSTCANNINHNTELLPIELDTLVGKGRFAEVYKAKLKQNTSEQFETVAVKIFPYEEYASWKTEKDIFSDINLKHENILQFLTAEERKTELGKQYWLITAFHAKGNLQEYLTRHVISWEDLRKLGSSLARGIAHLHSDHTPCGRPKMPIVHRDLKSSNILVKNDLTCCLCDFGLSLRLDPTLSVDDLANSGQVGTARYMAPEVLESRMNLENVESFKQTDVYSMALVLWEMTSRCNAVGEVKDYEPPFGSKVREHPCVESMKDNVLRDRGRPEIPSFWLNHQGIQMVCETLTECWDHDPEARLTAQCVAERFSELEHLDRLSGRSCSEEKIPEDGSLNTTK
Sequence of UniProt P51617 (whole entry, looked up): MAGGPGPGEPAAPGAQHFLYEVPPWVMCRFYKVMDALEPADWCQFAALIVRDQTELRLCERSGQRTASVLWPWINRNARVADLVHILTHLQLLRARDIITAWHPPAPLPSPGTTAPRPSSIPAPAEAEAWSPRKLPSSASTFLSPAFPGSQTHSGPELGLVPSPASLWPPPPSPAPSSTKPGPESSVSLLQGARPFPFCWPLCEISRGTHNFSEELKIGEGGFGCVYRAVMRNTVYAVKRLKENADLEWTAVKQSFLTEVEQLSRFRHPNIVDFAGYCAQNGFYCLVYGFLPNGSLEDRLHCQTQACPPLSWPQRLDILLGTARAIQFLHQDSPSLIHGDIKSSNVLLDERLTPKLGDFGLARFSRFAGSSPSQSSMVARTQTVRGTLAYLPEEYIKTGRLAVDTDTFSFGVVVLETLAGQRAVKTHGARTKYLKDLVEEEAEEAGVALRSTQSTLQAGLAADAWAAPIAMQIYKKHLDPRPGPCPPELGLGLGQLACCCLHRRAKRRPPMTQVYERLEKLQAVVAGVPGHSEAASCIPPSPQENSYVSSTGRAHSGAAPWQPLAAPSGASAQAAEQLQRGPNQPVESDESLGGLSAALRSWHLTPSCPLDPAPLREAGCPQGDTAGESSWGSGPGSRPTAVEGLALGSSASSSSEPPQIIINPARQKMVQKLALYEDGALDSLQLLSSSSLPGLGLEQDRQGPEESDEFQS
Sequence of UniProt Q96PN8 (whole entry, looked up): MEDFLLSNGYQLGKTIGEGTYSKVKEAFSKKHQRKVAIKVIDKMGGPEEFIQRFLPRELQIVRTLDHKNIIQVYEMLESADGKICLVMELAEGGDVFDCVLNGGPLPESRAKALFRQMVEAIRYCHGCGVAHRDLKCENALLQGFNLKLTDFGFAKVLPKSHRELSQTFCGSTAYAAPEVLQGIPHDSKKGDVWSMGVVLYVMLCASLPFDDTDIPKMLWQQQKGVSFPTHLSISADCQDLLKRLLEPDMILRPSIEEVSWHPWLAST
Sequence of UniProt O60674 (whole entry, looked up): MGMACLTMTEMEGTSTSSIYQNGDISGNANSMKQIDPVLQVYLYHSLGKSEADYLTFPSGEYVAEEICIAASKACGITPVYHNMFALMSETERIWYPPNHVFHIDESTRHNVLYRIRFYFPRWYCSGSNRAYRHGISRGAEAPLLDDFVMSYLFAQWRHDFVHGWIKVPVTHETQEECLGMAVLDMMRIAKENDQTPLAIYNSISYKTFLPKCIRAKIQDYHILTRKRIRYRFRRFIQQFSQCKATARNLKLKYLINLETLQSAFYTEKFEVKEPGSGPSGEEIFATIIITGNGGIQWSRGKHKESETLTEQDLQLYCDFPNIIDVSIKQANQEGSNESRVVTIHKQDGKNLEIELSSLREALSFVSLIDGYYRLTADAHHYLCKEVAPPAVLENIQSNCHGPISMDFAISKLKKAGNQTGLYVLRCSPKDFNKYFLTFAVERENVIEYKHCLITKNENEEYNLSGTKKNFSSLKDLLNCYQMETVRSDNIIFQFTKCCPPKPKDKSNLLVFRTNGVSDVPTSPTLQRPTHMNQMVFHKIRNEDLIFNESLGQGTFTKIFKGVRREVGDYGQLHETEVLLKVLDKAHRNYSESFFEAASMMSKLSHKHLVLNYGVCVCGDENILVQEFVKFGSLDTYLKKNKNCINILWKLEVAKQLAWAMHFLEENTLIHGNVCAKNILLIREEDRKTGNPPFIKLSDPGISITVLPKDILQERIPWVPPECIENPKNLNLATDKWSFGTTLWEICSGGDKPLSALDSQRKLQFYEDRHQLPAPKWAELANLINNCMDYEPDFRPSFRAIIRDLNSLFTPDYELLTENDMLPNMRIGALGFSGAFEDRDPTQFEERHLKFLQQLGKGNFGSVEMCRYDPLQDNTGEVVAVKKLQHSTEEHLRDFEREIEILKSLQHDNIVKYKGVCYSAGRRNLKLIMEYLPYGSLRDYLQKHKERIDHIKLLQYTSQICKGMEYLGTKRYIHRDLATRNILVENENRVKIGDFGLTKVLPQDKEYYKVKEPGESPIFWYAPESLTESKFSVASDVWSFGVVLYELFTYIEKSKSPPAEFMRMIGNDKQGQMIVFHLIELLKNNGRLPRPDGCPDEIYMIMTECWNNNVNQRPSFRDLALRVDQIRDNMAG
Sequence of UniProt Q8WTQ7 (whole entry, looked up): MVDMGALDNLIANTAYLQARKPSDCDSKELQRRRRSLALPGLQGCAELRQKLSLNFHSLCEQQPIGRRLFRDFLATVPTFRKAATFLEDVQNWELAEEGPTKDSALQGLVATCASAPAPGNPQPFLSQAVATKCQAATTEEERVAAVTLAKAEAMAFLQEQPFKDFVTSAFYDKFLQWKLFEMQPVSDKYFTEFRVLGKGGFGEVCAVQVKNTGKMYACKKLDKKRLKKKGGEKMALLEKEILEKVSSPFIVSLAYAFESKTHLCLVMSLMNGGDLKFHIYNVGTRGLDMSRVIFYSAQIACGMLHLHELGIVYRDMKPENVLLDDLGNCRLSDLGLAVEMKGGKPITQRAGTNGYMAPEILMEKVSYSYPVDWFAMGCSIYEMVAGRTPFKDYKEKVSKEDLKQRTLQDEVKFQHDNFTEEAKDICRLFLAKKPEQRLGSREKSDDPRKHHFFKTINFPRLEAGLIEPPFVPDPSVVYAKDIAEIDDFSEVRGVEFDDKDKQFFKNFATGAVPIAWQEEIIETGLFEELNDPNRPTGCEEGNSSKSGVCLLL
Sequence of UniProt Q9NWZ3 (whole entry, looked up): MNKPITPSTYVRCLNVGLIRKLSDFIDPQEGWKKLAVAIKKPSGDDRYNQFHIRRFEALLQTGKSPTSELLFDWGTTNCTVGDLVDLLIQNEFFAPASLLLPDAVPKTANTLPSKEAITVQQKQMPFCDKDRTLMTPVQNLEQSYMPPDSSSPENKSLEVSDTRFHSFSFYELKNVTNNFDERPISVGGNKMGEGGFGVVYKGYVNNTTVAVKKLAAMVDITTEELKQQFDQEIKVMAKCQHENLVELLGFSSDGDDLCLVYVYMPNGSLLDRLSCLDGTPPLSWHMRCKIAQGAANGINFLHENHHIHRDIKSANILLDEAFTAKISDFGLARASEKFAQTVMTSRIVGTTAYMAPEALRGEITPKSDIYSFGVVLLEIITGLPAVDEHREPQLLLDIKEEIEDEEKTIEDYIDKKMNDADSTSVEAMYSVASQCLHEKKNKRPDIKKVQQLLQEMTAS

Sample 1
Substitution: F5L
Target: ABI1, truncated, D143A, DHFR fusion (Arabidopsis thaliana)
Technique: DHFR PCA, deep sequencing
Medium: yeast
Setting: methotrexate growth selection, single substitutions
Relative to: wild-type fitted maximum
Direction: higher = stronger binding
Starting sequence: PYL1, truncated, DHFR fusion (Arabidopsis thaliana); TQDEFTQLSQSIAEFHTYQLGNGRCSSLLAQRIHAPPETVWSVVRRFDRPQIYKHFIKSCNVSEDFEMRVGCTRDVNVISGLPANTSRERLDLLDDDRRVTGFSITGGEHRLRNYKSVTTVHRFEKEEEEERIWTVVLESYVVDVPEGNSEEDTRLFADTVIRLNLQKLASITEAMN; partner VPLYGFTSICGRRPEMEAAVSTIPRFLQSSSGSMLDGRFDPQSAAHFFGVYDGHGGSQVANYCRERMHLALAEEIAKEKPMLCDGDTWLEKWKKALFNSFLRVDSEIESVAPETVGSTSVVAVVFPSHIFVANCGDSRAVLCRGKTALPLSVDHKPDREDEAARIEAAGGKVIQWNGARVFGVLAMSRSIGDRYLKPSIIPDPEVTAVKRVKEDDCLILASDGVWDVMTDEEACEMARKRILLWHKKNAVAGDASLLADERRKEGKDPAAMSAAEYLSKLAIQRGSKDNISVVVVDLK
setting	relative binding score
together with: (+)-ABA 200 µM	100%
together with: (+)-ABA 2500 µM	105%
together with: (+)-ABA 1.4 µM	74.7%
together with: (+)-ABA 17 µM	89%
together with: (+)-ABA 58 µM	96.7%
together with: (+)-ABA 0.11 µM	49%

Sample 2
SMILES: Cc1cc(NC(=O)c2cccc(S(F)(F)(F)(F)F)c2)cc(-n2ccn3nc(-c4cccnc4)cc23)c1
Effect on: cell-free assay
Technique: competition with immobilised ligand
Concentration: 1 µM
target	remaining binding [%]
Ribosomal protein S6 kinase alpha-5, N-terminal kinase domain (RPS6KA5, Homo sapiens, UniProt O75582)	100
Ribosomal protein S6 kinase alpha-1, N-terminal kinase domain (RPS6KA1, Homo sapiens, UniProt Q15418)	91.7
TGFBR2 (Homo sapiens, UniProt P37173)	94.5
TSSK3 (Homo sapiens, UniProt Q96PN8)	100
Tyrosine-protein kinase JAK2, JH1 (JAK2, Homo sapiens, UniProt O60674)	85.3
PRKAA2 (Homo sapiens, UniProt P54646)	100
IRAK4 (Homo sapiens, UniProt Q9NWZ3)	98.4
RIOK2 (Homo sapiens, UniProt Q9BVS4)	49.7
CSK (Homo sapiens, UniProt P41240)	100
IRAK1 (Homo sapiens, UniProt P51617)	96
TSSK1B (Homo sapiens, UniProt Q9BXA7)	100
GRK7 (Homo sapiens, UniProt Q8WTQ7)	100
ROS1 (Homo sapiens, UniProt P08922)	92.8
MAST1 (Homo sapiens, UniProt Q9Y2H9)	100
HUNK (Homo sapiens, UniProt P57058)	77.6
ACVR1 (Homo sapiens, UniProt Q04771)	100
CAMKK1 (Homo sapiens, UniProt Q8N5S9)	100

Sample 3
Target: POU, POU domain (Salpingoeca helianthica)
Technique: Spec-seq
Molecule type: double-stranded DNA, one strand shown
Medium: in vitro
Concentration: not given
Setting: whole probe, mean of replicates
Relative to: not given
Direction: lower = stronger binding
Constant ends, left off below: GAGTCGTCTCGTCAGCAC … CCGTAGAGCACTCAGGTC
Residues (chain): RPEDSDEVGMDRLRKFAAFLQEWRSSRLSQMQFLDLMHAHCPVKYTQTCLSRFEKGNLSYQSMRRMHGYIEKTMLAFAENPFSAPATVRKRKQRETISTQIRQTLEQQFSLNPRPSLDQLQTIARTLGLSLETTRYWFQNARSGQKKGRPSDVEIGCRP
Sequence	relative binding energy [ln ratio]
ATTTTCAT	0.784
ATGCAAAC	1.05
TAGCTAAT	0.365
ATGGATAT	1.04
ATGCTCGG	1.34
ATGCCCTG	1.53
GTAGTAAT	0.456
ATGCGCCA	1.12

Sample 4
Target: Hepatocyte nuclear factor 3-alpha (Foxa1, Mus musculus, UniProt P35582, residues 1-468, full length assumed)
Technique: EMSA with sequencing
Molecule type: double-stranded DNA, one strand shown
Medium: in vitro
Concentration: 10 and 20 nM
Setting: whole designed probe, mean of two concentrations, ends assumed
Relative to: negative control set to 0
Direction: higher = stronger binding
Construct (chain): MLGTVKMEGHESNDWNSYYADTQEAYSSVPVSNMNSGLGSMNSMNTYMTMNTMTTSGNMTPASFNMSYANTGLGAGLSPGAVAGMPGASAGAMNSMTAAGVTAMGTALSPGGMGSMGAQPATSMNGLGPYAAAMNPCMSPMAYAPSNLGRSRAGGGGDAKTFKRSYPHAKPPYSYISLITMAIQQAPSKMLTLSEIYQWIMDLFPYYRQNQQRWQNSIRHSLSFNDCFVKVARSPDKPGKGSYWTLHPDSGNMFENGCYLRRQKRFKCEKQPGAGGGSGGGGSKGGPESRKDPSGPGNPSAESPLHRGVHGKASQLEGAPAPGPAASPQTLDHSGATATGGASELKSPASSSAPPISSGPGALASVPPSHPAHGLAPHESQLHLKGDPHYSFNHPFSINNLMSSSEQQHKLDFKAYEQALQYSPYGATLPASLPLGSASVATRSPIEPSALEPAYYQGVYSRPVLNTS
Sequence	normalised bound fraction
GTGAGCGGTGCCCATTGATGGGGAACAATCAGTTAGAAAAAGATAACCTAGTAGAAAAATGGGCAGAAGGCTTGAGTAGACATTTCTCAAAGAAAACATCCATGTGGAAAAATAATTTAGCAATTTAAGCCAACCATGTGAAAAGGTACCTGACTTCATTAATCATCAAGGGAATGCAAATGAACGTCACGATGCACCACTGCACACTCACCGGAAGGCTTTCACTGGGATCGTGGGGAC	-0.0122 ratio
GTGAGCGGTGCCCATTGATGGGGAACATCTTCCCCCTCTTCCTTGCCCCACCAGCTCACCTTCCCGGGTTATTTGCAGATAGGACACTTACAGTAAGAAATAGACGTTAACCCTCTTCTGGCGCAAACTGCTGTTTGCTCTGGATGAATCATGGTCCTTTGGCGACGCCAGGCTCCGGGAGAGCAAAGCACCGTGTCAGGGCCATGATCCGGGGTGGCCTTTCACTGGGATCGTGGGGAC	0.193 ratio
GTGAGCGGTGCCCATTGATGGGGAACAAATGGAAAGTACTTTGAAAAGTTTGAAGCTGTATACAATAGCCATCTGTTGTCCTCAAAGTGAGTGGTCCTTGGGGGCAGGCTTGCTACAAAGTAAACAACCTGGGGCAAAAGGTTTTAGTTGTTTAGACAAGAACACACTGCCTTTCATCAGTGTGGGAAAGAACTGGATCGGGAATTAGACCACGTGGGCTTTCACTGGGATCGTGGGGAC	0.464 ratio
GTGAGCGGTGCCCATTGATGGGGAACTTTTGCCTGTGATGTTAAAACTGATTAATGTGAAGAAAATGCAATGCTTTTATCCATCATGAGCTTTGAGGGGGGAAAAAAGTTTTAGAGAAAAGTAATCTAGTAAAAACAAAGGATTAAATAGGAAAATGAAGAGTGCTGGCCTAGCATTTAGGGCATTTGATATCCTGTGGACTTCTAATTAATTAAGCAGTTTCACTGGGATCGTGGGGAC	-0.0286 ratio
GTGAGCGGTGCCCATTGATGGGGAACTTTCCAGCCCTTAGTTTCTGGCATTTAACCTGACTCTGGTCCCTGAATGGCATGGGAGTGCTTTCAACCACAGGTTTCCTGACTCATTCCACTTGTTTGCTTTTCTGTCACATTCTGATCTACAGAGATCTTTATTTGCTTTGTGTTTCCAATGGAGAAAGAGCTTGGGAAGGGAGGATCCTAATTGTCTAAATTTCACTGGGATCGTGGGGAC	0.493 ratio
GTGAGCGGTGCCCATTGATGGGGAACATCTTCCCCCGTTTCTCTCCCCCACCAGCTCACCTTCCCGGGTTATTTGCAGATAGGAAAATAAATAAAGCCGGCATTCGTTAACCCTCTTCTGGCGCAAACTGCTGTTTGCTCTGGATGAATCATGGTCCTTTGGCGACGCCAGGCTCCGGGAGAGCAAAGCACCGTGTCAGGGCCATGATCCGGGGTGGCCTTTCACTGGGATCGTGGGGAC	0.331 ratio
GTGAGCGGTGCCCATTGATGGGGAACTTCCACTTCCGGTCCGACTTCTAGCACCTCCCCTTATGGACTGTTGATATTGCGCATGCTCTAAATTAACTTGGAAGCCAATTTCAGCCCACAGTCAACAGGGAGCACACACATATTTAGAGACATCGTGCAGTTTCCGTAATCGGCGCTCACGGGCAGAGAATATAACCGCGCCCTTATGGTGTTTATTTGTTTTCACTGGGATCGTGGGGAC	0.206 ratio
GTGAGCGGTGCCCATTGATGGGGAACATTTGATACACGAAGAAAATCCTGGATTTGCCTCTAAGAGTCTCCCACATTATAACAATAATATCAACAATGATACCAGTCTTGCCTTTCCAGTGTAAACATGAACAGACTCTTAAATATTAACTAAGTAGAACACAAGCTAGCTTTTTAATATTTTTATTTATTTAAAAAATGAAAAAGGAAATTATATAGATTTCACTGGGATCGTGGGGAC	0.443 ratio

Further values, each from its own experiment
Structure (SMILES)	system	setting	endpoint	value
COc1ccc(C2c3cccn3-c3sc4c(c3CN2C(=O)NC(C)C)CCCC4)cc1 (stereo not shown)	mouse, microsomes or S9	2 µM, 0.5 h	remaining compound	1.18%
